Measurements from different studies.
Parts stem from different laboratories: compare values within a part only.
UniProt Q8N5S9, sequence (whole entry, looked up): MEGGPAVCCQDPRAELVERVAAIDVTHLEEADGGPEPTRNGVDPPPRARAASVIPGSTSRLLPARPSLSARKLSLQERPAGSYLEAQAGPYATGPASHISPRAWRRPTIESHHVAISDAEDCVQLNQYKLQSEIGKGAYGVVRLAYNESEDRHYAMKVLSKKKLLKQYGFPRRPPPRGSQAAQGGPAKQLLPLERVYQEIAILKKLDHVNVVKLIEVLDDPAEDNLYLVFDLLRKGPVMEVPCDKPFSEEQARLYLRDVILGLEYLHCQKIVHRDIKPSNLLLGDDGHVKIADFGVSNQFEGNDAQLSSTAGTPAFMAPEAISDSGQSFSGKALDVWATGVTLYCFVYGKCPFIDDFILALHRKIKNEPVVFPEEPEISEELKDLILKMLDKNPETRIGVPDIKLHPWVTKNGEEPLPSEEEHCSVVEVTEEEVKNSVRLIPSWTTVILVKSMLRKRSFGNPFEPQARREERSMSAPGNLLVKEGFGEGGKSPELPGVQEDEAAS
UniProt Q14012, sequence (whole entry, looked up): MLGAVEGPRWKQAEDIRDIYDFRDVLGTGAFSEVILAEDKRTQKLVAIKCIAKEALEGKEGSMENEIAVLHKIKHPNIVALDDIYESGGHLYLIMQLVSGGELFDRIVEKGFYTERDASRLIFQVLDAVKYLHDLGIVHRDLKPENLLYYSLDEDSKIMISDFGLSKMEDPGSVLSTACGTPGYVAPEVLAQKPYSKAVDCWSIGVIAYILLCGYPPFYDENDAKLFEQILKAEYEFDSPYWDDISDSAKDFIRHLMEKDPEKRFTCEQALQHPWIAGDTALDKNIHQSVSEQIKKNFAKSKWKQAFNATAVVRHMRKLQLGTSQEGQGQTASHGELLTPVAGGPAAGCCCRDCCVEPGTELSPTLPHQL
UniProt P11309, sequence (whole entry, looked up): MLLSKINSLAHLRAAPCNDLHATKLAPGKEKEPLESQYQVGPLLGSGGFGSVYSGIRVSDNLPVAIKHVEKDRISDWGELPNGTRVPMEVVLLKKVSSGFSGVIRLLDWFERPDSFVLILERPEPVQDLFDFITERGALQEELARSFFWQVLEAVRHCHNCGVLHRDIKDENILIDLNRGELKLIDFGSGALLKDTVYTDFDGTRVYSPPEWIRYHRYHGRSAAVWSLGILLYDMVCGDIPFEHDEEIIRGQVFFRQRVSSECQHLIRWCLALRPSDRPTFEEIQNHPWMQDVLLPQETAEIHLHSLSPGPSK
UniProt Q8IWQ3, sequence (whole entry, looked up): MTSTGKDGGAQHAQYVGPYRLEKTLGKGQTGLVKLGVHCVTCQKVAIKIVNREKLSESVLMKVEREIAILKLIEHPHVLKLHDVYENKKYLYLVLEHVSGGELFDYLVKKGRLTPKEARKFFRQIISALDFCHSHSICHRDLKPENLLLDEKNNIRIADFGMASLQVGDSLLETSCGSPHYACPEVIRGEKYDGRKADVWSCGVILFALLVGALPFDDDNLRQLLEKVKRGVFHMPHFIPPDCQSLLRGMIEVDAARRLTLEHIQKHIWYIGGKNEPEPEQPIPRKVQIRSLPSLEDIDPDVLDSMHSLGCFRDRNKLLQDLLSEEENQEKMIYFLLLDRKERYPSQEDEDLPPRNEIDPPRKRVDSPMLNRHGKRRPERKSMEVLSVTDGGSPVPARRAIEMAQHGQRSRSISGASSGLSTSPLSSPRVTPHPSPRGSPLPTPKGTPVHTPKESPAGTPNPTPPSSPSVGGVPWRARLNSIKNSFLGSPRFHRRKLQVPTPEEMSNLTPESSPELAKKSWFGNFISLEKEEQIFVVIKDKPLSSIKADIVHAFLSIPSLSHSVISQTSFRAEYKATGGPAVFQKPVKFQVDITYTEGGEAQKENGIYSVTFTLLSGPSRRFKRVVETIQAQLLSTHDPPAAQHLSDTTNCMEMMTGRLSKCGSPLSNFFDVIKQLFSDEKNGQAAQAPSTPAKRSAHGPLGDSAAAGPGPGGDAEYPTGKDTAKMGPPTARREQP
UniProt Q9P286, sequence (whole entry, looked up): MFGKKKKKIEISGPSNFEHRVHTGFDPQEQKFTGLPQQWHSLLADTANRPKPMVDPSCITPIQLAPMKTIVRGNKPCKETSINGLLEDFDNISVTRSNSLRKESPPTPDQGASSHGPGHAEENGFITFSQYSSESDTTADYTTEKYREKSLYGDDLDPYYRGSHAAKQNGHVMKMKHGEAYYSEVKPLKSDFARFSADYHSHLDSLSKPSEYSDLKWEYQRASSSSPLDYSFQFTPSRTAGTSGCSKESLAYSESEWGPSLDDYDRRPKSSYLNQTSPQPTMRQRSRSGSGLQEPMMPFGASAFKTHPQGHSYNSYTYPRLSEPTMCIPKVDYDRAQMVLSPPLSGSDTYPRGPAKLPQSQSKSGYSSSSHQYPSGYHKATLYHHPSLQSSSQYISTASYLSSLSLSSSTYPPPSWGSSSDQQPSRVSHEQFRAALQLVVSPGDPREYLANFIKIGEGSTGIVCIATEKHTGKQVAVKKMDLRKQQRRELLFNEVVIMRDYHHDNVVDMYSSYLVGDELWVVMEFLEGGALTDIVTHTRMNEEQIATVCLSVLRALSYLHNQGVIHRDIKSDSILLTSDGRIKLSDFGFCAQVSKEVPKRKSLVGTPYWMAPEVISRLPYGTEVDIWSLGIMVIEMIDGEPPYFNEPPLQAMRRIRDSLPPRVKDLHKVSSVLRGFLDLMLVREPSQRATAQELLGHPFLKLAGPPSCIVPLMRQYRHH
UniProt P54753, sequence (whole entry, looked up): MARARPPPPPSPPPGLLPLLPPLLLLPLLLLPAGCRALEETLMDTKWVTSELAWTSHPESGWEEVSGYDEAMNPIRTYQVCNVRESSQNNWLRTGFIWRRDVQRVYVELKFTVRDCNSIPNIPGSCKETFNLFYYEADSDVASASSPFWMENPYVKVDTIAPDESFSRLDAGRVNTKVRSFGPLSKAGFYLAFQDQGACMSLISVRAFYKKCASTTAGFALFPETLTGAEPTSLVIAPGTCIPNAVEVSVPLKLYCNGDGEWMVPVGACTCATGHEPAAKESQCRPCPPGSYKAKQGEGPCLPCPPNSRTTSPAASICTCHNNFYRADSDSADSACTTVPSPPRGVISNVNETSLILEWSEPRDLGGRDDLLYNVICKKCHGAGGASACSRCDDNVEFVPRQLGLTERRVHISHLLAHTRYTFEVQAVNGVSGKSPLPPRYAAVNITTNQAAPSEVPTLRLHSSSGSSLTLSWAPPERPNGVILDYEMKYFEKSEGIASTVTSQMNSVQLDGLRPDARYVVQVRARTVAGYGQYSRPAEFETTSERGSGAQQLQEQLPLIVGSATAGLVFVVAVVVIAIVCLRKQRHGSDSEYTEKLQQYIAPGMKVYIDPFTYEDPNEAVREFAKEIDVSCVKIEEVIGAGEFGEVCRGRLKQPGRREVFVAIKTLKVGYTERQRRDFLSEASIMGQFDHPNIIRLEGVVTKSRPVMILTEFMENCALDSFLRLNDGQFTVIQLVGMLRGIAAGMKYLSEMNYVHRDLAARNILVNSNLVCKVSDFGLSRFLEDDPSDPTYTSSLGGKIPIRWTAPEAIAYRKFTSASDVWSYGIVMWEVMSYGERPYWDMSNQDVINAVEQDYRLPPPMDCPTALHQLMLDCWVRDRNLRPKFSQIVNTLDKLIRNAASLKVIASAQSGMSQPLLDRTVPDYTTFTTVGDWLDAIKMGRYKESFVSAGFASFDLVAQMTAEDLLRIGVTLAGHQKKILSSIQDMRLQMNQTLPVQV
UniProt P49759, sequence (whole entry, looked up): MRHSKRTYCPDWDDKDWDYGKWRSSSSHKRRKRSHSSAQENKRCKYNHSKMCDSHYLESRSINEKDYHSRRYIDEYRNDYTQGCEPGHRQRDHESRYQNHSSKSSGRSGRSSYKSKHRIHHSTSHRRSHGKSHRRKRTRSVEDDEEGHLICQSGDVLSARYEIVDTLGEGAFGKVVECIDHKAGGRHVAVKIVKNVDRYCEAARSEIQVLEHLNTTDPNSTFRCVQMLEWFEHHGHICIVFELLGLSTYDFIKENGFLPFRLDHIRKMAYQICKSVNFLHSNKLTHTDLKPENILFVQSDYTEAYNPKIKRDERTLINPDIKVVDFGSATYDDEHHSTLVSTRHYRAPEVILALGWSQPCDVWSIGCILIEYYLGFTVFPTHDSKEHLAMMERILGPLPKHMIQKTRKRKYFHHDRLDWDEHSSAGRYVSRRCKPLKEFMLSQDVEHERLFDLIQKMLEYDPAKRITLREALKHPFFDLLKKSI

Set 1
Cell line: HEK-293T/ACE2
Tested at: 10 µM
Time: 16 h
Baseline: vehicle
Compound	viability
C[C@]12C=CC(=O)C=C1CC[C@H]1[C@@H]3C[C@@H](O)[C@](O)(C(=O)CO)[C@@]3(C)C[C@H](O)[C@@]12F	101%
C[C@]12CC[C@H]3[C@@H](CC[C@@]45O[C@@H]4C(O)=C(C#N)C[C@]35C)[C@@H]1CC[C@@H]2O	97.6%
CC(C)(Oc1ccc(C(=O)c2ccc(Cl)cc2)cc1)C(=O)O	96.2%
O=C(O)c1cc(/N=N/c2ccc(S(=O)(=O)Nc3ccccn3)cc2)ccc1O	103%
OC(c1cc(C(F)(F)F)nc2c(C(F)(F)F)cccc12)C1CCCCN1 (centres unmarked)	94.2%
CO[C@H]1C[C@@H]2CC[C@@H](C)[C@@](O)(O2)C(=O)C(=O)N2CCCC[C@H]2C(=O)O[C@H]([C@H](C)C[C@@H]2CC[C@@H](O)[C@H](OC)C2)CC(=O)[C@H](C)/C=C(\C)[C@@H](O)[C@@H](OC)C(=O)[C@H](C)C[C@H](C)/C=C/C=C/C=C/1C	100%
CN(C)CC[C@@H](c1ccc(Cl)cc1)c1ccccn1	104%
CCC(Cc1c(I)cc(I)c(N)c1I)C(=O)O (centres unmarked)	96.8%
COC1=CC(=O)C[C@@H](C)[C@]12Oc1c(Cl)c(OC)cc(OC)c1C2=O	98.8%
CNC(=O)c1ccccc1Sc1ccc2c(/C=C/c3ccccn3)n[nH]c2c1	71.2%

Set 2
Cell line: HEK-293T-ACE2-TMPRSS2
Method: cell count
Tested at: concentration not given
Compound	viability
COc1cc(NC(=O)c2cnc(N3CCCCC3)c3ccccc23)cc(OC)c1OC	77%
Cc1nc(-c2ccc(C)c(S(=O)(=O)N3CCC(C(=O)NC4CCCc5ccccc54)CC3)c2)no1 (centres unmarked)	66%
COc1ccc(Cl)cc1NC(=O)Cn1c(C(=O)c2cccc(F)c2)nc2ccccc21	78%
C=C1CC2(C)C(=CC1=O)CCC1C2CCC2(C)C(OC(=O)OCC)CCC12 (centres unmarked)	72%
OCC1(Cc2ccccc2F)CCCN(Cc2cnn(-c3ccccc3)c2)C1 (centres unmarked)	110%
COc1ccc(-c2ccnc(N)n2)cc1	99%
CCOc1ccc(NC(=O)Cn2ncc(Cl)c(Cl)c2=O)c([N+](=O)[O-])c1	220%
OC(c1ccccn1)C1CCN(c2ncnc3[nH]ccc23)CC1 (centres unmarked)	98%
COC(=O)c1sc(S(C)(=O)=O)c(C#N)c1-c1cc(C(C)(C)C)oc1C	66%
O=C(NCc1ccccc1)C1CCCN(C(=O)C2Sc3ccccc3NC2=O)C1 (centres unmarked)	74%
CSc1cccc(NC(=O)Cn2c(C)cc(-c3nnc(C)o3)c2C)c1	107%
CC(C)CC(=O)N1C2CCC1c1cnc(-c3ccc(F)cc3)nc1C2 (centres unmarked)	69%
CCc1nc(=O)c(-c2ccccc2)c(C)n1-c1ccccc1	73%

Set 3
Structure (SMILES): COc1ccc2c(c[n+](C)c3c4cc5c(cc4ccc23)OCO5)c1OC
Effect on: enzyme activity
Action: inhibitor
Tested at: 0.5 µM
Baseline: control
target	remaining activity [%]
EPHB3 (Homo sapiens, UniProt P54753)	95.4
CAMK1 (Homo sapiens, UniProt Q14012)	81.4
CLK1 (Homo sapiens, UniProt P49759)	101
PIM1 (Homo sapiens, UniProt P11309)	97
CAMKK1 (Homo sapiens, UniProt Q8N5S9)	101
PAK5 (Homo sapiens, UniProt Q9P286)	77.4
BRSK2 (Homo sapiens, UniProt Q8IWQ3)	97

Further values, each from its own experiment
Cell line: HaCaT
Tested at: 100 µM
Time: 18 h
Compound	viability [%]
Cc1ccc(/N=C/N(C)/C=N/c2ccc(C)cc2C)c(C)c1	34.2
Oc1cc(Cl)ccc1Oc1ccc(Cl)cc1Cl	17.2
